Published values gathered from unrelated publications.
Each line is one published result; not all experiments were run side by side. ± marks the error that the study gave.

SMILES	test	test system	setting	remaining compound [%]
COc1cc(NC(C)=O)c2c(c1O)-c1c(OC)c(OC)cc3c1C(C2)N(C)CC3 (stereo not shown)		rat liver homogenate	100 µg/mL, time not given, three freeze-thaw cycles	103 ± 1.5
CN(C)C(CNC(=O)Nc1cc(C(F)(F)F)ccc1N1CCOCC1)c1ccncc1 (stereo not shown)		human plasma	6 h	88.6
CSCC(NC(=O)c1cc(Cl)ccc1Cl)C(=O)NC(CC(C)C)B(O)O (stereo not shown)		monkey liver microsomes	3 µM, 60 min, pH 7.4, added: NADPH	51 ± 0.54
O=c1c2ccccc2[se]n1CCCCCCn1[se]c2ccccc2c1=O		mouse liver microsomes	5 µM, 4 h, pH 7.4, 37 °C	< 5
C=C(NC(=O)[C@@H]1CCCN1C(=O)C(C)(C)NC(=O)OCc1ccccc1)C(=O)N[C@@H](C)C(=O)OC	1H NMR	DMSO-d6	40 min, room temperature, added: cysteamine 2 equiv	65
COc1ccc2c(c1)c(CC(=O)Nc1nnc(CCCCc3ccc(NC(=O)Cc4cccc(OC(F)(F)F)c4)nn3)[se]1)cn2C		mouse liver microsomes	50 µM, 4 h, pH 7.4, 37 °C	34.4 ± 9.5
CC(=O)OC1C(=O)C2(C)C(O)CC3OCC3(OC(C)=O)C2C(OC(=O)c2ccccc2)C2(O)CC(OC(=O)C(OC(=O)OC3C=CCCC(C)(C(=O)NCC(=O)O)CC3)C(NC(=O)c3ccccc3)c3ccccc3)C(C)=C1C2(C)C (stereo not shown)		mouse plasma	1 µM, time not given, 37 °C	96.5
CC1=C(C=O)C(C)(C)CC=C1		mouse plasma	500 µM, 4 h	31
N=C(N)NCCC[C@H](NC(=O)[C@@H]1CCCN1C(=O)[C@H](Cc1ccccc1)NC(=O)[C@@H]1CCCN1C(=O)[C@H](Cc1c[nH]cn1)NC(=O)[C@@H](N)Cc1ccccc1)C(=O)O	LC-MS/MS	Sprague Dawley rat plasma	5 ng/mL, 10 min, room temperature	52.7 ± 12.9
CC#N.[Ru+2].c1ccc(-c2cccc(-c3ccccn3)n2)nc1.c1ccc(-c2ccccn2)nc1		water	24 h, 37 °C	84
CC1=C(C2=C(C)C(=O)c3c(cc(O)c(O)c3Cc3ccccc3)C2=O)C(=O)c2cc(O)c(O)c(Cc3ccccc3)c2C1=O (racemic)		rat liver microsomes	4 µM, 1 h, pH 7.4	81.7 ± 5.4
O=C(O)Cc1cc(F)ccc1Nc1c(Cl)cccc1Cl	glucuronidation	human liver microsomes	30 min, added: UDPGA	58 ± 3.3
CC12CC3CC(C)(C1)CC(NC(=O)NC1CCC(Oc4ccc(C(=O)O)cc4)CC1)(C3)C2 (stereo not shown)		human liver microsomes	1 µM, 30 min, 37 °C, 1 mg/mL microsomes, added: NADPH	8 ± 2
CO[C@@H](C(N)=O)[C@H](NC(=O)c1ccc(NC(=O)c2ccc([N+](=O)[O-])cc2)cc1)C(=O)Nc1ccc(C(=O)Nc2ccc(C(=O)Nc3ccc(C(=O)O)cc3)c(O)c2OC(C)C)cc1		mouse plasma	4 h	> 90
CCCC(CCC)NC(=O)c1ccc(OC)c(O)c1		rat liver microsomes	1.0 µM, 20 min	68.4
C[C@H](CCC(=O)NCCC(c1ccccc1)c1ccccc1)[C@H]1CC[C@H]2[C@@H]3CC[C@@H]4CC(=O)CC[C@]4(C)[C@H]3CC[C@]12C		simulated intestinal fluid	2 h	99.3
CC1(C)C(=CC=C(C=CC2=[N+](CCC[N+](C)(C)C)c3ccc(S(=O)(=O)[O-])cc3C2(C)C)CCC(=O)[O-])N(CCC[N+](C)(C)C)c2ccc(S(=O)(=O)[O-])cc21		100% serum	24 h, pH 7.4, 37 °C	99
O=C(NCCCCc1ccccc1)n1c(=O)oc2cc(-c3ccc(F)cc3)ccc21		mouse liver microsomes	5 µM, 1 h, pH 7.4	89
CCCCCCCCCCCCCCCC(=O)N[C@@H](CCCCN)C(=O)N[C@H](C(=O)N[C@H](C(=O)N[C@@H](CCCCN)C(=O)N[C@@H](CO)C(=O)O)[C@@H](C)O)[C@@H](C)O	LC-MS/MS	mouse dermal skin extract	40 µg/mL, 120 min, pH 7.4, 37 °C	9.7

Excerpt of the above:
SMILES	test	test system	setting	remaining compound [%]
CC1=C(C=O)C(C)(C)CC=C1		mouse plasma	500 µM, 4 h	31
